Measurements pooled from the literature.
Values joined by “and” are separate records of one study, mostly repeats; a detail may differ. ± marks the error that the study gave.

The maximum inhibition of `C=CC(=O)N1CCC([C@@H]2CCNc3c(C(N)=O)c(-c4ccc(Oc5ccccc5)cc4)nn32)CC1` is reported as 62.3% (TMD8; calcium flux, FLIPR; 1 h preincubation, added: anti-IgM).
For `CN(C)c1ncnc2c1ncn2[C@@H]1O[C@H](CO)[C@@H](O)[C@H]1O`, the AP-TGFα release was -0.11% and -0.05% and -0.7% (mock-transfected cells; TGFα shedding, agonist; 10 nM; baseline: unstimulated vehicle control).
With `CCn1cc(-c2cc(Cn3ccoc3=N)cc3c2CCN([C@@H](C)c2cc(OC)ccn2)C3=O)c(C(F)(F)F)n1` the EC50 was 0.285 µM (MOLM-13; cell growth, inhibitor; 120 h).
Under “ATF4-mAPPLE reporter activation”, `CCc1cnc(N2CCC(c3nc(COc4ccc(-n5cnnn5)cc4)cs3)CC2)nc1` is recorded as “inhibited” (HEK-293T ATF4-mAPPLE, HRI CRISPRi knockdown; flow cytometry; 10 µM, 16 h).
The AP-TGFα release of `C[C@@H](O)[C@H](NC(=O)Nc1ncnc2c1ncn2[C@@H]1O[C@H](CO)[C@@H](O)[C@H]1O)C(=O)O` is reported as 0% (mock-transfected cells; TGFα shedding, agonist; 100 µM; baseline: unstimulated vehicle control).
`CCCCN1C[C@H](O)[C@@H](O)[C@@H](O)[C@H]1CO` has an IC50 of 10.7 µM (sample B patient fibroblasts; Gb3 level lowering, LC-MS/MS, refers to: Gb3 d18:1/22:0; 216 h).
With `CC(C)C[C@H](NC(=O)[C@H](Cc1ccccc1)NC(=O)c1cnccn1)B(O)O` the EC50 was 0.132 µM (BRD4-HiBiT cells; BRD4 degradation rescue, inhibitor; 2 h, added: dBET6 500 nM).
`CCCCC[C@H](O)/C=C/[C@H]1C(=O)C[C@H](O)[C@@H]1C/C=C\CCCC(=O)O`: “HTRF cAMP signal” 318 a.u. and 310 a.u. and 313 a.u. (HEK293-A2AR cells, SLCO2A1 knockout; HTRF cAMP; 100 pM).
`CCCC1=C(C(=O)OCC)C(c2ccc(Cl)cc2C)C2=C(CC(c3ccc(Cl)c(OC)c3)OC2=O)N1` (stereo not shown) has an EC50 of > 20 µM (J774.A1; cytotoxicity).
For `Nc1cccc2c1C(=O)N(C1CCC(=O)NC1=O)C2=O` (stereo not shown), “surface marker level” read 248% (RPMI-8226; flow cytometry, refers to: CD98; concentration not given; baseline: comparator compound alone).
With `CC(C)C[C@@H](C=O)NC(=O)[C@H](CC(C)C)NC(=O)[C@H](CC(C)C)NC(=O)OCc1ccccc1` the EC50 was 0.336 µM (BRD4-HiBiT cells; BRD4 degradation rescue, inhibitor; 8 h, 50% degradation rescued, added: dBET6 500 nM).
With `C=Cc1c2[n-]c(c1C)/C=c1\[n-]/c(c(C)c1C=C)=C\c1[n-]c(c(CCC(=O)O)c1C)/C=c1\[n-]c(c(C)c1CCC(=O)O)=C2.[Sn+4]` the fold change was 1.68 (SH-SY5Y; RNA-seq, refers to: RYR3 mRNA; 5 µM, 5 h; baseline: untreated cells).
With `O=C(C[C@@H](C(F)F)n1ccc(F)n1)N1CCC(O)(Cn2cnc3c(cnn3-c3ccc(F)cc3)c2=O)CC1` the viable cells was 83.9% and 89.2% and 90% (CHP-212 resistant subline R3; annexin V/PI flow cytometry; 0.3 µM, 48 h).
For `C[C@H](Nc1ccc2c(c1)OCCn1cc(N3C(=O)OC[C@H]3C(F)F)nc1-2)C(N)=O`, the IC50 was 10 µM (KYSE-510; growth rate inhibition, CellTiter-Glo; 120 h).
For `CC[C@H](C)[C@H](NC(=O)[C@H](C)NC(=O)CNC(=O)[C@H](Cc1ccccc1)NC(=O)[C@H](CC(N)=O)NC(=O)[C@H](CC(N)=O)NC(=O)[C@H](CO)NC(=O)[C@H](CO)NC(=O)[C@H](Cc1c[nH]cn1)NC(=O)[C@@H](NC(=O)[C@H](CC(C)C)NC(=O)[C@H](Cc1ccccc1)NC(=O)[C@H](CC(N)=O)NC(=O)[C@H](C)NC(=O)[C@H](CC(C)C)NC(=O)[C@H](CCCNC(=N)N)NC(=O)[C@H](CCC(N)=O)NC(=O)[C@@H](NC(=O)[C@H](C)NC(=O)[C@@H]1CSSC[C@H](NC(=O)[C@@H](N)CCCCN)C(=O)N[C@@H](CC(N)=O)C(=O)N[C@@H]([C@@H](C)O)C(=O)N[C@@H](C)C(=O)N[C@@H]([C@@H](C)O)C(=O)N1)[C@@H](C)O)C(C)C)C(=O)N[C@@H](CC(C)C)C(=O)N[C@@H](CO)C(=O)N[C@@H](CO)C(=O)N[C@H](C(=O)N[C@@H](CC(N)=O)C(=O)N[C@H](C(=O)NCC(=O)N[C@@H](CO)C(=O)N[C@@H](CC(N)=O)C(=O)N[C@H](C(=O)N[C@@H](Cc1ccc(O)cc1)C(N)=O)[C@@H](C)O)C(C)C)[C@@H](C)O`, “intracellular ROS level” read 5.39 and 4.88 (INS-1; DCFH-DA confocal microscopy; 1 µM, unit not given; baseline: control).
`O=C(COP(=O)(O)O)[C@@H](O)[C@H](O)[C@H](O)COP(=O)(O)O` gave a lactate production of 1.34 mM and 1.27 mM and 1.24 mM (HepG2 control sgRNA; concentration not given).
For `Cl.c1ccc(Oc2ccc(Nc3ccc4ncc(OCC5CCNCC5)nc4c3)cc2)cc1`, mRNA level read “decreased” (MOLM-13; RT-qPCR, refers to: Myc and Meis1; 0.3 and 1 µM, 3 days).
For `CCOC(=O)C1=C(C)NC2=C(C(=O)OC(c3ccc(OC)c(OC)c3)C2)C1c1ccccc1` (mixture of isomers), the EC50 was > 20 µM (J774.A1; cytotoxicity).
The protein level of `CC/C(=N\NC(=O)C(C)Nc1ccccc1)c1ccc(O)c(C)c1O` (stereo not shown) is reported as 0.9 ± 0.4 (SK-OV-3; Western blot, refers to: LATS; 10 µM, 6 h, 2D culture, unit not given; baseline: β-actin).
With `Nc1ncnc2c1ncn2[C@@H]1O[C@H](COP(=O)(O)O)[C@@H](O)[C@H]1O` the viability was 44.6% and 56.2% (MDA-MB-231 BAX/BAK siRNA knockdown; CellTiter-Glo; concentration not given; baseline: normalised luminescence).
The inhibition of `Cc1nn(-c2nc3ccccc3[nH]2)c(O)c1C(c1ccccn1)c1c(C)nn(-c2nc3ccccc3[nH]2)c1O` is reported as 45.8% and 49.9% and 48.7% (THP1-Dual; IFN reporter gene, luciferase reporter; 25 µM, added: HT-DNA).
`O=C(/C=C/C=C/C=C/C1CCCCC1)NC1=C[C@@](O)(/C=C/C=C/C=C/C(=O)NC2=C(O)CCC2=O)[C@@H]2O[C@@H]2C1=O` has a GI50 of 17.7 µM (UMUC3; cell growth, CellTiter-Glo; 78 h).
`Nc1ncnc2c1ncn2[C@@H]1O[C@H](CO)[C@@H](O)[C@H]1O` has a TNF production of 4450 a.u. and 3830 a.u. and 4270 a.u. (activated human T cells; 316 nM; higher = more TNF).
For `COc1cc(N2CCC(N3CCN(C)CC3)CC2)ccc1Nc1ncc(Cl)c(Nc2ccccc2P(C)(C)=O)n1`, the Emax was 99.8% (Ba/F3 EML4-ALK v1, no mutation; cell viability).
The EC50 of `COc1ccc(C2CC(=O)C3=C(C2)NC(C)=C(C(=O)O)C3c2ccccc2Cl)cc1OC` (stereo not shown) is reported as > 20 µM (J774.A1; cytotoxicity).
`Cn1cc(Nc2nccc(-c3ccc4c(c3)CN(C3COC3)CC[C@H]4NC(=O)c3cn(C(C)(C)C)nn3)n2)cn1` — result for “number of downregulated genes”: 305 (human B cells; 100 nM, 64 h, stimulation-upregulated genes, added: CpG ODN2006).
For `CCn1cc(-c2cc(Cn3ccnc3)cc3c2CCN([C@H](c2cc(OC)ccn2)C2CC2)C3=O)c(C(F)(F)F)n1`, the EC50 was 6.68 µM (NCI-H520; cell growth, inhibitor; 120 h).
The toxicity of `CC(=O)c1nn(-c2ccc(Cl)cc2)/c(=N/N=C(\C)c2ccc(NC(=O)c3ccc(C)cc3)cc2)s1` is reported as 94.7% (MCF7; 5 µM).
`c1ccc2[nH]ccc2c1`: “mRNA level, LS mean” 2.62 counts per million (HCT-8; RNA-seq, refers to: SLC16A11; concentration not given).
The selectivity ratio of `NCCOc1cc(C(=O)Nc2cc(OCCN3CCCC3)c3ccccc3n2)nc(C(=O)Nc2cc(OCCN3CCCC3)c3ccccc3n2)c1` is reported as 2.6 (HT-1080; cell viability, CellTiter-Glo; 72 h; baseline: IC50 HT-1080 over WI-38).
`Cc1nn(-c2nc3c(F)cc(F)cc3s2)c(O)c1C(c1cccc(C(F)(F)F)c1)c1c(C)nn(-c2nc3c(F)cc(F)cc3s2)c1O` has an inhibition of 75% and 76.9% and 72.5% and 72.7% and 77% (THP1-Dual; IFN luciferase reporter; 20 µM, added: HT-DNA).
For `COc1cnc2cccc(N3CCc4c(cc(Cn5ccnc5C)cc4-c4cn(C)nc4C(F)(F)F)C3=O)c2c1`, the EC50 was > 30 µM (NCI-H520; cell growth, inhibitor; 120 h).
`Clc1nc(NCc2ccco2)c2[nH]cnc2n1` gave a ΔPSI of -0.301 (FD iPSC-derived cardiomyocytes; alternative splicing, RNA-seq, refers to: GRB7 exon chr17(+):39745912-39746000; unit not given; baseline: DMSO minus compound).
`CC(C)(C)c1ccc(C(O)CCCN2CCC(C(O)(c3ccccc3)c3ccccc3)CC2)cc1` (stereo not shown) gave a viability of 7.33% and 3.79% (MDA-MB-231 BAX/BAK siRNA knockdown; CellTiter-Glo; concentration not given; baseline: normalised luminescence).
`Cc1cnc(NC2CCOCC2)nc1-n1cnc(C(=O)NC(CN)c2cc(F)cc(Cl)c2)c1` (stereo not shown) — result for “G2 phase cells”: 6.6% (MINO; flow cytometry; 1 µM, 48 h).
For `Cc1nn(CC(F)(F)F)cc1Nc1ncc(Br)c(NCc2ccc(S(N)(=O)=O)cc2)n1`, “phospho-TBK1 to TBK1 ratio” read 0.639 and 0.367 and 0.59 (THP1-Dual; western blot; 20 µM, added: cGAMP; baseline: DMSO).
With `CCOC(=O)C1=C(C)NC2=C(C(=O)CC(c3ccc(Cl)c(OC)c3)C2)C1c1ccccc1Cl` (stereo not shown) the EC50 was > 20 µM (J774.A1; cytotoxicity).
`C[C@H]1[C@@H](O)O[C@@H]2O[C@@]3(C)CC[C@H]4[C@H](C)CC[C@@H]1[C@@]24OO3`: “late apoptotic cells” 1.6% (THP-1; annexin V/PI flow cytometry, refers to: annexin V+/PI+; 1.6 µM, 24 h).
`CC#CC(=O)N1CCC[C@H]1c1nc(-c2ccc(C(=O)Nc3ccccn3)cc2)c2c(N)nccn12` gave a maximum inhibition of 62.5% (TMD8; calcium flux, FLIPR; 1 h preincubation, added: anti-IgM).
`CC/C(=N\NC(=O)NCc1cccc(O)c1)c1ccc(O)c(C)c1O` gave a log ratio of -4.98 (SK-OV-3; gene expression, microarray, refers to: MMP13; 10 µM, 24 h; baseline: DMSO).

Some of these lines once more:
For `Nc1cccc2c1C(=O)N(C1CCC(=O)NC1=O)C2=O` (stereo not shown), “surface marker level” read 248% (RPMI-8226; flow cytometry, refers to: CD98; concentration not given; baseline: comparator compound alone).
With `CC(C)C[C@@H](C=O)NC(=O)[C@H](CC(C)C)NC(=O)[C@H](CC(C)C)NC(=O)OCc1ccccc1` the EC50 was 0.336 µM (BRD4-HiBiT cells; BRD4 degradation rescue, inhibitor; 8 h, 50% degradation rescued, added: dBET6 500 nM).
With `C=Cc1c2[n-]c(c1C)/C=c1\[n-]/c(c(C)c1C=C)=C\c1[n-]c(c(CCC(=O)O)c1C)/C=c1\[n-]c(c(C)c1CCC(=O)O)=C2.[Sn+4]` the fold change was 1.68 (SH-SY5Y; RNA-seq, refers to: RYR3 mRNA; 5 µM, 5 h; baseline: untreated cells).
With `O=C(C[C@@H](C(F)F)n1ccc(F)n1)N1CCC(O)(Cn2cnc3c(cnn3-c3ccc(F)cc3)c2=O)CC1` the viable cells was 83.9% and 89.2% and 90% (CHP-212 resistant subline R3; annexin V/PI flow cytometry; 0.3 µM, 48 h).
For `C[C@H](Nc1ccc2c(c1)OCCn1cc(N3C(=O)OC[C@H]3C(F)F)nc1-2)C(N)=O`, the IC50 was 10 µM (KYSE-510; growth rate inhibition, CellTiter-Glo; 120 h).
For `CC[C@H](C)[C@H](NC(=O)[C@H](C)NC(=O)CNC(=O)[C@H](Cc1ccccc1)NC(=O)[C@H](CC(N)=O)NC(=O)[C@H](CC(N)=O)NC(=O)[C@H](CO)NC(=O)[C@H](CO)NC(=O)[C@H](Cc1c[nH]cn1)NC(=O)[C@@H](NC(=O)[C@H](CC(C)C)NC(=O)[C@H](Cc1ccccc1)NC(=O)[C@H](CC(N)=O)NC(=O)[C@H](C)NC(=O)[C@H](CC(C)C)NC(=O)[C@H](CCCNC(=N)N)NC(=O)[C@H](CCC(N)=O)NC(=O)[C@@H](NC(=O)[C@H](C)NC(=O)[C@@H]1CSSC[C@H](NC(=O)[C@@H](N)CCCCN)C(=O)N[C@@H](CC(N)=O)C(=O)N[C@@H]([C@@H](C)O)C(=O)N[C@@H](C)C(=O)N[C@@H]([C@@H](C)O)C(=O)N1)[C@@H](C)O)C(C)C)C(=O)N[C@@H](CC(C)C)C(=O)N[C@@H](CO)C(=O)N[C@@H](CO)C(=O)N[C@H](C(=O)N[C@@H](CC(N)=O)C(=O)N[C@H](C(=O)NCC(=O)N[C@@H](CO)C(=O)N[C@@H](CC(N)=O)C(=O)N[C@H](C(=O)N[C@@H](Cc1ccc(O)cc1)C(N)=O)[C@@H](C)O)C(C)C)[C@@H](C)O`, “intracellular ROS level” read 5.39 and 4.88 (INS-1; DCFH-DA confocal microscopy; 1 µM, unit not given; baseline: control).
